Measured values collected from several papers.
Numbered parts are unrelated; each lists some results of a single study. Positions count from the first letter of the parent shown.

Study 1
Target: POU domain, class 5, transcription factor 1, POU domain (Pou5f1, Mus musculus, UniProt P20263, residues 131-289)
Chain of UniProt P20263 (131-289, looked up): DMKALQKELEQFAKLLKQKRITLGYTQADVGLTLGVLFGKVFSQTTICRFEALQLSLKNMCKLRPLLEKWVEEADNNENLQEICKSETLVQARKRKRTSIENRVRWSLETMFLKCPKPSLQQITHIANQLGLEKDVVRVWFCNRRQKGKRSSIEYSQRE
Method: Spec-seq
Form: double-stranded DNA, one strand shown
Medium: in vitro
Concentration: not given
Notes: whole probe, mean of replicates
Relative to: not given
Reading: lower = stronger binding
All sequences stand within: GAGTCGTCTCGTCAGCAC … CCGTAGAGCACTCAGGTC
Strand	relative binding energy
ATGCGGCC	0.517 ln ratio
ATCAGTAT	0.402 ln ratio
ATGCCTAG	0.551 ln ratio
ATTCGAAT	-0.22 ln ratio
ATTATAAT	-0.632 ln ratio
ATGCCCTG	1 ln ratio
TAGATAAT	0.599 ln ratio
CTCTTAAT	0.856 ln ratio

Study 2
Target: Ras GTPase-activating protein-binding protein 1, full length (G3BP1, Homo sapiens, UniProt Q13283)
Chain of UniProt Q13283 (whole entry, looked up): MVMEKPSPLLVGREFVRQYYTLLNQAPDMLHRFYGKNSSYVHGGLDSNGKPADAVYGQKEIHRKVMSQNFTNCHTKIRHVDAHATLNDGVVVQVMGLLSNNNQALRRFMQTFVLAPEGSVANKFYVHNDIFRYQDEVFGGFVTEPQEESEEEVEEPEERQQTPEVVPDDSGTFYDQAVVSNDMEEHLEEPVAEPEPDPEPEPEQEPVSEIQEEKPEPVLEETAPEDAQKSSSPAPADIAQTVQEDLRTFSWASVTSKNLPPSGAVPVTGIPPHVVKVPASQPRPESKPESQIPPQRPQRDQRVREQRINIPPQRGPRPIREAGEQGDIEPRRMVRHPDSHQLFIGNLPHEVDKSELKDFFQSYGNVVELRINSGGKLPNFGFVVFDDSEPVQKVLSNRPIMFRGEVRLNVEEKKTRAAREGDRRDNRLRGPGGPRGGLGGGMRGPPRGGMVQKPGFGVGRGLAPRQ
Method: RNA Bind-n-Seq
Form: RNA
Medium: in vitro
Concentration: 200 nM
Notes: whole 134-nt RNA, ends assumed
Added: 150 mM LiCl
Relative to: input library
Reading: higher = stronger binding
All molecules: 7-deaza-guanosine replaces G
All sequences stand within: GGGAGUUCUACAGUCCGACGAUC … UGGAAUUCUCGGGUGUCAAGG
Strand	log2 enrichment
GUCCUGUGCUACACAUCGUAUGUACCGAAUCGGGAAAAAGGGAAAAAGGGGAAAAAGGAAAGUAUUAUGUUACGCCGUUCGGAUCUGCAC	-0.118
CACAGACAACACGCACCCACACAGACACAGAGGGAAGGGGUUGGGAUGGGGACAGGGUGCACAGCAGGGUGGGGUAGGACCCCAGCCCCU	0.492
CAAGUCCUGUGCUACACAUCGUAUGUACCGAAUCGGGGAAAGGGGUGGGGUGGGGAAAGUAUUAUGUUACGCCGUUCGGAUCUGCACUUC	-0.182
AGUCCUGUGCUACACAUCGUAUGUACCGAAUCGGAAAAAAAGGUUUUUUUGGUUUGGAAAGUAUUAUGUUACGCCGUUCGGAUCUGCACU	-3.46
UUCUCUGCCGGCUCAGAGGAGAGGAGACGCCGUGAGCGGGACGACCAGAUGUACCGAGAGCGGCUGCGCACCUUGCUGGUCAUCGCGGUU	-1.08
CAAGUCCUGUGCUACACAUCGUAUGUACCGAAUCGGUUUUGGGUUUUGGUUUUGGAAAGUAUUAUGUUACGCCGUUCGGAUCUGCACUUC	-0.792
CAAGUCCUGUGCUACACAUCGUAUGUACCGAAUCGGUUUGGGGUUUGGGUUUGGGAAAGUAUUAUGUUACGCCGUUCGGAUCUGCACUUC	-1.01
ACUGGACCAGAUUGUUGAAAAAGGAAGACCAGCUCCUGGCUUCCAUCAUGGCGAUGGACCGGGAAAUGCAGUUCAAGAAAUCAUGAUUCC	-1.53

Single results of other studies
P1: viral docking peptide; YKVKRRLVFGADD; partner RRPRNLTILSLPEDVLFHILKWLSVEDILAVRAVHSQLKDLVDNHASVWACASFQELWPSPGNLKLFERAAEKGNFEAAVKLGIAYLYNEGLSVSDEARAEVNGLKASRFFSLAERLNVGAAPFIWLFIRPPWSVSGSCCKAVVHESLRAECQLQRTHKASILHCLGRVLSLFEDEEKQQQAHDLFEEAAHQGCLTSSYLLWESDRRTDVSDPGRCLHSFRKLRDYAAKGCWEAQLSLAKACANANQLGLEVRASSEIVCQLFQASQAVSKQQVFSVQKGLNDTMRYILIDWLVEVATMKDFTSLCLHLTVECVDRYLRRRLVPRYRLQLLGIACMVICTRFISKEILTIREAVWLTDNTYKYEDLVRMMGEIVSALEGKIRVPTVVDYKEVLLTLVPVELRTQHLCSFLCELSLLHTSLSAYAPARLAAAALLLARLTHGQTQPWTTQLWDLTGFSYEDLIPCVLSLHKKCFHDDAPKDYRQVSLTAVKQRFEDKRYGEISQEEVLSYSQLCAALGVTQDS
Substance	target	test	test system	conditions	scale	measurement	result
P1 V8D	CCNF, cyclin fold, Cln2 fusion (human)	yeast growth competition, sequencing	yeast	strong parent motif	relative to: not given, higher = stronger binding	normalised enrichment score	8.95
FSFFMNENF	HLA class I histocompatibility antigen, A alpha chain, allele A*80:01 (Homo sapiens, UniProt P04439)	peptide-MHC binding	peptide		direction not given	z-score of log IC50	0.38

Repeated from above (study 2):
Strand	log2 enrichment
CACAGACAACACGCACCCACACAGACACAGAGGGAAGGGGUUGGGAUGGGGACAGGGUGCACAGCAGGGUGGGGUAGGACCCCAGCCCCU	0.492
CAAGUCCUGUGCUACACAUCGUAUGUACCGAAUCGGUUUGGGGUUUGGGUUUGGGAAAGUAUUAUGUUACGCCGUUCGGAUCUGCACUUC	-1.01
UUCUCUGCCGGCUCAGAGGAGAGGAGACGCCGUGAGCGGGACGACCAGAUGUACCGAGAGCGGCUGCGCACCUUGCUGGUCAUCGCGGUU	-1.08
